# Experimental data gathered from unrelated publications.
# Protocols differ between the studies behind these lines. pKd: −log10 of the molar value.
# T1: G-quadruplex DNA G6A/G17A (Homo sapiens); AAGGGAGGGCGGCGGGACA
# T2: G-quadruplex DNA, quadruplex; GGTTGGTGTGGTTGG
# T3: G-quadruplex DNA, G-quadruplex (Homo sapiens); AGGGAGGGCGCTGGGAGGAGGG
# T4: G-quadruplex DNA, parallel; GGGTAGGGCGGGTTGGGA
# T5: G-quadruplex DNA, parallel, snap-back loop (Homo sapiens); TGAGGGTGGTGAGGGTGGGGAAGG
# T6: G-quadruplex DNA, 5' Cy5; GGGTGGGAAGAGTGGGA
# T7: G-quadruplex DNA, G-quadruplex (Homo sapiens); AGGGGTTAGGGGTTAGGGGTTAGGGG
# T8: G-quadruplex DNA (Homo sapiens); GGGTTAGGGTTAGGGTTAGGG
# T9: G-quadruplex DNA (Homo sapiens); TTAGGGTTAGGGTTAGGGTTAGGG
SMILES,target,test,setting,how to read,quantity,value
Nc1nc2c(ncn2[C@@H]2O[C@@H]3COP(=O)(O)O[C@H]3[C@H]2O)c(=O)[nH]1,"T1, G-quadruplex DNA G6A/G17A (Homo sapiens)",microscale thermophoresis,"pH 7, KCl 37.5 mM",,pKd,4.23
CC(C)C[C@H](NC(=O)[C@H](CCCNC(=N)N)NC(=O)[C@@H](N)Cc1ccc(O)cc1)C(=O)N[C@@H](Cc1ccccc1)C(=O)N[C@@H](CCCNC(=N)N)C(=O)N[C@@H](CCCCN)C(=O)O,"T2, G-quadruplex DNA, quadruplex",ITC,"pH 7.19, 25 °C, NaCl 150 mM, without K+",,pKd,4.06
COc1ccc2cc3[n+](cc2c1-c1ccc(N(C)C)cc1)CCc1cc2c(cc1-3)OCO2,"T3, G-quadruplex DNA, G-quadruplex (Homo sapiens)",FRET melting,"target 0.2 µM, pH 7.0, KCl 10 mM, ligand:DNA ratio 5",higher = more stabilisation,melting temperature shift,4.7 °C
C=CC1=C(C)C2=Cc3c(C=C)c(C)c4[n]3[Fe]([Cl])[n]3c(c(C)c(CCC(=O)O)c3=CC3=NC(=C4)C(C)=C3CCC(=O)O)=CC1=N2,"T4, G-quadruplex DNA, parallel",Soret absorption titration,"pH 5.1, 25 °C, K+ 10 mM",,pKd,7.52
C[n+]1cc(NC(=O)c2ccc3ccc4ccc(C(=O)Nc5cc6ccccc6[n+](C)c5)nc4c3n2)cc2ccccc21,"T5, G-quadruplex DNA, parallel, snap-back loop (Homo sapiens)",Cy5 fluorescence quenching titration,"2 nM, pH 7.2, KCl 100 mM",,pKd,8.17
Nc1nc2c(ncn2[C@H]2C[C@H](O)[C@@H](CO)O2)c(=O)[nH]1,"T1, G-quadruplex DNA G6A/G17A (Homo sapiens)",microscale thermophoresis,"pH 7, KCl 37.5 mM",,pKd,5.51
C=CC1=C(C)c2cc3[n-]c(cc4[n-]c(cc5nc(cc1n2)C(C)=C5C=C)c(C)c4CCC(=O)O)c(CCC(=O)O)c3C.[Cl-].[Fe+3],"T6, G-quadruplex DNA, 5' Cy5",Cy5 fluorescence quenching titration,"pH 8, KCl 200 mM, with: MgCl2 1 mM",,pKd,4.36
CCc1c(C)c2cc3nc(cc4nc(cc5c(CC)c(C)c(cc1[nH]2)n5C)C(C)=C4CCC(=O)O)C(CCC(=O)O)=C3C,"T7, G-quadruplex DNA, G-quadruplex (Homo sapiens)",fluorescence titration,"pH 7.2, 25 °C, Na+ 50 mM",,binding,binds weakly
C[n+]1ccc(-c2c3nc(c(-c4cc[n+](C)cc4)c4ccc([n-]4)c(-c4cc[n+](C)cc4)c4nc(c(-c5cc[n+](C)cc5)c5ccc2[n-]5)C=C4)C=C3)cc1.[Zn+2],"T8, G-quadruplex DNA (Homo sapiens)",FRET melting,"1 µM, pH 7.2, Na+ 50 mM",higher = more stabilisation,melting temperature shift,16.4 °C
Nc1nc2c(ncn2[C@H]2C[C@H](O)[C@@H](COP(=O)(O)O)O2)c(=O)[nH]1,"T1, G-quadruplex DNA G6A/G17A (Homo sapiens)",microscale thermophoresis,"pH 7, KCl 37.5 mM",,pKd,4.23
Cc1cc2c3c([n+](C)c4ccc(F)cc4c3c1)-c1cc(F)ccc1N2C,"T9, G-quadruplex DNA (Homo sapiens)",fluorescence titration,"pH 7.5, room temperature, K+ 100 mM, apparent, no PEG200",,pKd,5.74
C=Cc1c(C)c2cc3c(C=C)c(C)c(cc4nc(cc5nc(cc1[nH]2)C(C)=C5CCC(=O)O)C(CCC(=O)O)=C4C)n3C,"T8, G-quadruplex DNA (Homo sapiens)",FRET melting,"1 µM, pH 7.2, Na+ 50 mM",higher = more stabilisation,melting temperature shift,0.3 °C
Nc1nc2c(ncn2[C@H]2C[C@H](O)[C@@H](COP(=O)(O)OP(=O)(O)OP(=O)(O)O)O2)c(=O)[nH]1,"T1, G-quadruplex DNA G6A/G17A (Homo sapiens)",microscale thermophoresis,"pH 7, KCl 37.5 mM",,pKd,3.29

# Excerpt of the above:
SMILES,target,test,setting,how to read,quantity,value
COc1ccc2cc3[n+](cc2c1-c1ccc(N(C)C)cc1)CCc1cc2c(cc1-3)OCO2,"T3, G-quadruplex DNA, G-quadruplex (Homo sapiens)",FRET melting,"target 0.2 µM, pH 7.0, KCl 10 mM, ligand:DNA ratio 5",higher = more stabilisation,melting temperature shift,4.7 °C
C=CC1=C(C)C2=Cc3c(C=C)c(C)c4[n]3[Fe]([Cl])[n]3c(c(C)c(CCC(=O)O)c3=CC3=NC(=C4)C(C)=C3CCC(=O)O)=CC1=N2,"T4, G-quadruplex DNA, parallel",Soret absorption titration,"pH 5.1, 25 °C, K+ 10 mM",,pKd,7.52
